# Published values collected from several papers.
# Lines come from different studies, so protocols differ. Several values in a cell are separate wells, animals, samples, runs or records. Numbers after ± are the reported error.
SMILES,tested on,assay,system,conditions,how to read,quantity,value
Cc1ccc(Nc2nc(-c3cc(C(=O)Nc4ccncc4)no3)cs2)cc1,Mycobacterium avium,,11,96 h,,IC50,> 100 µM
CC(C)(C)C1=CC(=NNC(=O)c2ccc(O)cc2)C=C(C(C)(C)C)C1=O,Toxoplasma gondii,"parasite growth, fluorescence",,"5 days, intracellular",,IC50,3.8 µM
Cc1ccc(Nc2nc(-c3cc(C(=O)Nc4cccc(F)c4)no3)cs2)cc1,Mycobacterium avium,,11,96 h,,IC50,> 100 µM
Nc1ccn(C[C@@H](CO)OCP(=O)(O)O)c(=O)n1,Human adenovirus E serotype 4,"viral replication, plaque reduction","A549, RI-6",5 days,,IC50,16.6 ± 2.9 µM
CC(C)[C@H](NC(=O)[C@@H]1CCCN1C(=O)[C@H](CCCNC(=N)N)NC(=O)[C@H](CS)NC(=O)[C@H](Cc1c[nH]c2ccccc12)NC(=O)[C@H](CCCNC(=N)N)NC(=O)[C@@H](Cc1ccccc1)NC(=O)[C@H](Cc1c[nH]cn1)NC(=O)[C@H](CCC(=O)O)NC(=O)[C@H](CS)NC(=O)[C@H](CS)NC(=O)[C@H](CCCCN)NC(=O)[C@@H]1CC(=O)N[C@@H](CCCNC(=N)N)C(=O)N[C@@H](C)C(=O)N[C@@H](CC(=O)O)C(=O)N[C@H](Cc2ccc(O)cc2)C(=O)N1)C(N)=O [technetium-99m labelled],,,"C57 mice, brain","intravenous, 0.037 MBq, 2 h",,tissue uptake,0.04 ± 0.01 %ID/g
CCN(CC)CCCC(C)Nc1ccnc2cc(Cl)ccc12 (centres unmarked),Plasmodium yoelii,oxygen consumption,"17XL, infected red blood cells",,,IC50,> 12 µM
CCN(CC)CCCC(C)Nc1ccnc2cc(Cl)ccc12 (centres unmarked),Plasmodium vivax,schizont maturation,field isolates,20% human serum,,IC50,0.064 µM
COc1c(OC)c(O)c2c(=O)cc(-c3ccc(O)cc3)oc2c1OC,human immunodeficiency virus 1,"viral transcription, luciferase reporter",MT2 transfected with pNL4.3-Luc,48 h,,IC50,18 µM
CC(=O)c1ccc(Cn2cc(COc3cc(-n4nc(C(C)(C)C)oc4=O)c(Cl)cc3Cl)nn2)cc1,Toxoplasma gondii,"intracellular parasite growth, luminescence","HFF, wild type, NanoLuc reporter",96 h,,IC50,< 2.5 µM and 1.9 µM
COc1cc(C)c(-c2c(C)cc(OC)c3c(=O)cc(-c4ccc(N(C)C)cc4)oc23)c2oc(-c3ccc(N(C)C)cc3)cc(=O)c12,Toxoplasma gondii,"parasite proliferation, 3H-uracil incorporation","HS27 host cells, ME49 tachyzoites",,,IC50,1.6 µM
CO[C@@H]1C(=O)CC[C@]2(CO2)[C@@]1(O)[C@@]1(C)O[C@@H]1CC=C(C)C,Plasmodium yoelii,liver-stage schizont size,HepG2-A16-CD81EGFP,,,IC50,0.000736 µM
Cc1ccc(Nc2nc(-c3cc(C(=O)Nc4cc(C)ccn4)no3)cs2)cc1,Mycobacterium avium,,11,96 h,,IC50,> 100 µM
Cc1ccccc1/C=C/[C@]1(O)CC[C@H]2[C@@H]3CCc4cc(O)ccc4[C@H]3CC[C@@]21C,Ishikawa,"alkaline phosphatase induction, agonist",,"concentration not given, 3 d",baseline: estradiol,relative stimulatory activity,31.8%
[H]/N=C(\N/C(=N/[H])Nc1ccc(Cl)cc1)NC(C)C,Plasmodium yoelii,oxygen consumption,17XL,,,IC50,> 12 µM
N#CSCCOc1cccc(Oc2ccccc2)c1,Toxoplasma gondii,,"hTERT fibroblasts, RFP-expressing tachyzoites",,,IC50,4 µM
CC1(C)S[C@@H]2[C@H](NC(=O)[C@H](N)c3ccc(O)cc3)C(=O)N2[C@H]1C(=O)O,Haemophilus influenzae,,"hospitalized pneumonia patients, clinical isolates",Fine score 70 or more,,susceptible isolates,88.9%
Cc1ccc(Nc2nc(-c3cc(C(=O)Nc4ccc(F)cc4)no3)cs2)cc1,Mycobacterium avium,,11,96 h,,IC50,> 100 µM
O=C1CSC(=S)N1/N=C/c1cn(Cc2ccc(F)cc2)c2ccc([N+](=O)[O-])cc12,Leishmania donovani,"parasite growth, resazurin",THP-1,"24 h, intracellular, amastigote",,IC50,> 10 µM
CO[C@H]1/C=C/O[C@@]2(C)Oc3c(C)c(O)c4c(c3C2=O)C2=NC3(CCN(CC(C)C)CC3)NC2=C(NC(=O)/C(C)=C\C=C\[C@H](C)[C@H](O)[C@@H](C)[C@@H](O)[C@@H](C)[C@H](OC(C)=O)[C@@H]1C)C4=O,Mycobacteroides abscessus,,ATCC 19977,50% human serum,,IC50,2.5 µM
CC(C)(C)C(=O)Nc1ccc2[nH]c3c(C4=C[C@@]5(O)CC/C=C\CCCCN6CC[C@@H]4[C@]4(C[C@@H]7/C=C\CCCCN7[C@H]45)C6)nccc3c2c1,Mycobacterium intracellulare,microbial growth,,,,IC50,1.31 µM
CC[C@H]1OC(=O)[C@H](C)[C@@H](O[C@H]2C[C@@](C)(OC)[C@@H](O)[C@H](C)O2)[C@H](C)[C@@H](O[C@@H]2O[C@H](C)C[C@H](N(C)C)[C@H]2O)[C@](C)(O)C[C@@H](C)C(=O)[C@H](C)[C@@H](O)[C@]1(C)O,Haemophilus influenzae,,"hospitalized pneumonia patients, clinical isolates",Fine score 70 or more,,susceptible isolates,0%
C[C@]12CCC(=O)C=C1C=C[C@@H]1[C@@H]2CC[C@@]2(C)[C@H]1CC[C@@]21CCC(=O)O1,human immunodeficiency virus 1,"viral transcription, luciferase reporter",MT2 transfected with pNL4.3-Luc,48 h,,IC50,9.2 µM
CN(C)Cc1cc(OCCC[18F])ccc1Sc1ccccc1N,SERT,,"male Sprague Dawley rat, control, hypothalamus","intravenous, 60 min",,tissue uptake,0.66 ± 0.09 %ID/g
CN[C@H](CC(C)C)C(=O)N[C@H]1C(=O)N[C@@H](CC(N)=O)C(=O)N[C@H]2C(=O)N[C@H]3C(=O)N[C@H](C(=O)N[C@H](C(=O)O)c4cc(O)cc(O)c4-c4cc3ccc4O)[C@H](O)c3ccc(c(Cl)c3)Oc3cc2cc(c3O[C@@H]2O[C@H](CO)[C@@H](O)[C@H](O)[C@H]2O[C@H]2C[C@](C)(N)[C@H](O)[C@H](C)O2)Oc2ccc(cc2Cl)[C@H]1O,Staphylococcus aureus CVCC546,"ELISA, measured: IL-6",CD-1 mouse endometritis,"10 µg/mL, 24 h",,serum cytokine level,135 pg/mL
Cc1ccc(Nc2nc(-c3cc(C(=O)Nc4ccccn4)no3)cs2)cc1O,Mycobacterium avium,,11,96 h,,IC50,> 100 µM
O=CN/C=C/c1cc(O)ccc1O,native rod CNG channel,"ion current, inhibitor, patch clamp","Ambystoma tigrinum, rod outer segment patch, inside-out","100 µM, fully activated channels, with: genistein 100 µM",,genistein inhibition,decreased
